Measurements from different studies.
± gives the spread as reported.
gdpP residues 84-659: gdpP, residues 84-659 (Bacillus subtilis, UniProt P37484)
xlnD: Exo-1,4-beta-xylosidase xlnD (xlnD, Emericella nidulans, UniProt Q5BAS1)
RMS3: RMS3 (Lathyrus oleraceus, UniProt A0A109QYD3)
rhlR: HTH-type quorum-sensing regulator RhlR (rhlR, Pseudomonas aeruginosa, UniProt P54292)
ALB: Albumin (ALB, Bos taurus, UniProt P02769)

Structure (SMILES)	target	assay	test system	setting	scale	endpoint	result
Nc1ncc2ncn([C@@H]3O[C@@H]4COP(=O)(O)O[C@H]5[C@@H](O)[C@H](n6cnc7cnc(N)nc76)O[C@@H]5COP(=O)(O)O[C@H]4[C@H]3O)c2n1	gdpP residues 84-659	substrate, HPLC		100 µM, 37 °C, upper limit if undegraded 24 h, with: enzyme 1 µM		degradation rate	1.7 ± 0.2 mol/min/mol enzyme
O=C(O)COc1ccc(Cl)cc1	Chloride channel protein (Torpedo marmorata, UniProt P21564, C212S)	chloride current, inside-out patch clamp		20 mM, step to -140 mV		fast deactivation time constant	0.9 ms
Nc1nc2c(O)cc(N3CC3)cc2s1	Histone-lysine N-methyltransferase, H3 lysine-36 specific, SET domain (NSD1, Homo sapiens, UniProt Q96L73)	covalent inhibitor, mass spectrometry		30 °C, SET domain		kinact/KI	3.5 M⁻¹ s⁻¹
O[C@@H]1[C@@H](O)[C@H](O)C[C@H]2N[C@@H]12	xlnD	covalent inhibitor	Aspergillus nidulans	pH 4.5		kinact/Ki	2330 M⁻¹ s⁻¹
CC1=CC(Oc2c(F)cc3c(C)cc(=O)oc3c2F)OC1=O (racemic)	RMS3	enzyme activity, substrate, DiFMU release		pre-steady state		K1/2	3.83 ± 1.8 µM
CC[C@H](C)[C@H](NC(=O)[C@H](CC(=O)O)NC(C)=O)C(=O)N[C@H](C(=O)N[C@H](C(=O)N[C@@H](CCCNC(=N)N)C(=O)N[C@@H](Cc1ccc(O)cc1)C(=O)N[C@@H](CC(N)=O)C(=O)NCC(=O)N[C@@H](CCCCN)C(=O)N[C@H](C(=O)N[C@@H](Cc1c[nH]c2ccccc12)C(=O)N[C@@H](Cc1c[nH]c2ccccc12)C(=O)N[C@@H](CCCNC(=N)N)C(=O)O)C(C)C)[C@@H](C)O)[C@@H](C)O	Insulin (INS, Bos taurus, UniProt P01317)	isothermal titration calorimetry		pH 2.6, 25 °C		Ka, site 2	60100 M⁻¹
CCC(C(=O)OC)C1N=C(c2ccc(Cl)cc2)c2cc(OC)ccc2-n2c(C)nnc21 (centres unmarked)	human BET bromodomains L/A mutant	binding, isothermal titration calorimetry			reference: L/A mutant over wild type	selectivity ratio (average)	160 fold
CCc1ccc(NC(=O)CSc2nnc(-c3ccncc3)n2C2CC2)cc1	Orco (Drosophila melanogaster, UniProt Q9VNB5)	calcium mobilization, agonist	HEK293 expressing Orco		reference: VUAA1 maximum	efficacy	150%
O=C1SCCC1NC(C(=O)NCc1ccccc1)C1CC1 (centres unmarked)	TST (Homo sapiens, UniProt Q16762)	activator		34.2 µM, versus sodium thiosulfate, with: KCN 60 mM		Vmax	0.48 ± 0.02 mM/s
CC(C)OC(=O)[C@H](C)NP(=S)(Oc1ccccc1)c1ccccc1 (some centres unmarked)	Carboxypeptidase Y (Saccharomyces cerevisiae, UniProt P00729)	substrate, LC-MS/MS		5 µM, with: carboxypeptidase Y 60 ng/mL		maximum DNS-NH2 concentration	1.84 µmol/L
CCCN1CCc2cccc3c2[C@H]1Cc1ccc(O)c(O)c1-3	Carbamate kinase (Giardia intestinalis, UniProt A8BB85)	enzyme activity, inhibitor, luminescence, ATP detection	Giardia lamblia			maximal inhibition	89.9%
CC(C)P(=[Se])(NP(=[Se])(C(C)C)C(C)C)C(C)C	Alpha-amylase (Bacillus subtilis, UniProt P00691)	binding, Van't Hoff analysis		pH 6.8, 298–310 K		ΔH	55.3 kcal/mol
O=C(NC1CCCC1=O)C1CCC1 (centres unmarked)	rhlR	reporter gene, agonist, rhlI-lacZ reporter	Escherichia coli			maximum activation	93%
CC1=C(C)C(Oc2c(F)cc3c(C)cc(=O)oc3c2F)OC1=O (racemic)	RMS3	enzyme activity, substrate, DiFMU release		pre-steady state		kcat/K1/2	400 M⁻¹ s⁻¹
CC(=O)N[C@@H](CC(C)C)C(=O)N[C@@H](CCC(=O)O)C(=O)N[C@@H](Cc1c[nH]cn1)C(=O)N[C@@H](CC(=O)O)C(=O)Nc1ccc2c(C)cc(=O)oc2c1	Caspase-4 (CASP4, Homo sapiens, UniProt P49662)	substrate cleavage, substrate, fluorogenic AMC release		enzyme 0.25 activity units/µL		Vmax	2820 ± 159 RFU/min
O=C(Nc1cccc(-c2nn[nH]n2)c1)c1cc(-c2ccsc2)cc(C(F)(F)F)c1	CTX-M-27 beta-lactamase	surface plasmon resonance				Kd/Ki difference	2 to 3 fold
CCC(NC(=O)C(CC(C)C)NC(=O)NCc1ccccc1)C(=O)C(=O)NCc1cc(OC)cc(OC)c1 (centres unmarked)	Calpain-2 catalytic subunit (Capn2, Mus musculus, UniProt O08529)	brain enzyme activity	mouse, controlled cortical impact TBI, brain	intraperitoneal, 24 h after TBI		ED50	0.11 mg/kg
CC(=O)N[C@@H](Cc1c[nH]cn1)C(=O)N[C@@H](CCCNC(=N)N)C(=O)N[C@@H](CCCNC(=N)N)C(=O)N[C@@H](CCCNC(=N)N)C(=O)N[C@@H](CCCNC(=N)N)C(=O)N[C@@H](CCCNC(=N)N)C(=O)N[C@@H](CCCNC(=N)N)C(=O)N[C@@H](CCCNC(=N)N)C(=O)N[C@@H](CCCNC(=N)N)C(=O)N[C@@H](Cc1c[nH]cn1)C(N)=O	ALB	fluorescence quenching				bimolecular quenching rate constant	7.99e+12 M⁻¹ s⁻¹

Structure (SMILES)	target	assay	test system	setting	scale	endpoint	result
CCOc1cccc2c1[O][Pt-2]1([Cl])[N+](=C2)Cc2cccc[n+]21 (centres unmarked)	ALB	binding to BSA				binding free energy	-10 kcal/mol
CC(C)CC(NC(=O)C(NC(=O)NC(C(=O)O)C(C)C)C1CCNC(=N)N1)C(=O)NCCCNC(C(=O)O)C(OC1OC(CN)C(O)C1O)C1OC(n2ccc(=O)[nH]c2=O)C(O)C1O (centres unmarked)	mraY (Aquifex aeolicus, UniProt O66465)	binding, isothermal titration calorimetry		wild type, without Mg2+		ΔH	-9.1 ± 0.6 kcal/mol
O=C(N[C@H]1CCOC1=O)C1CCCC1	rhlR	reporter gene, agonist	Escherichia coli reporter strain	100 µM	reference: BHL 900 µM	activation	91%
c1ccc(CN2CCOCCOCCN(CCCCCCCCN3CCOCCOCCN(CCCCCCCCN4CCOCCOCCN(Cc5ccccc5)CCOCCOCC4)CCOCCOCC3)CCOCCOCC2)cc1	Quinolone resistance protein NorA (Staphylococcus aureus, UniProt P0A0J7)	inhibitor	1199B	4 µM, 20 min		ethidium bromide accumulation	no effect
CC(C)C[C@@H](NC(=O)[C@@H](CCCCN)NC(=O)[C@@H](C)NC(=O)[C@@H](CCCNC(=N)N)NC(=O)[C@@H](Cc1c[nH]cn1)NC(=O)[C@H](NC(=O)[C@@H](CO)NC(=O)[C@H](NC(=O)[C@@H](Cc1c[nH]c2ccccc12)NC(=O)[C@H](N)Cc1ccc(O)cc1)C(C)C)[C@H](C)O)C(=O)N1CCC[C@@H]1C(=O)N[C@H](CC(=O)O)C(N)=O	Microtubule-associated protein tau, PHF6 peptide (MAPT, Homo sapiens, UniProt P10636)	ThT fluorescence		500 µM, room temperature, 50 µM tau		fibril formation inhibition	no inhibition
NC(=NN=Cc1cccs1)[S][Ru+]([Cl])([P](c1ccccc1)(c1ccccc1)c1ccccc1)[P](c1ccccc1)(c1ccccc1)c1ccccc1.[Cl-]	ALB	fluorescence quenching				quenching rate constant	8.04e+12 M⁻¹ s⁻¹
Cc1cc(C2=CCN(CC3OCCO3)CC2)cc([N+](=O)[O-])c1N	HTR2A (Homo sapiens, UniProt P28223)	β-arrestin recruitment, agonist				Emax	119%
Nc1nc2ncc(CNc3ccc(C(=O)N[C@@H](CCC(=O)NCCOCCOCCNC(=O)CN4CCN5CCN(CC4)CC(=O)[O][Al]([18F])[O]C(=O)C5)C(=O)O)cc3)nc2c(=O)[nH]1	FOLR1 (Homo sapiens, UniProt P15328)	radioligand binding	CAL-51 xenograft homogenate	concentration not given, with: self-block 5 µM	reference: total binding	nondisplaceable binding	~11%
CN1/C(=C/C=C/C=C/C2=[N+](CCCCCC(=O)NCCCCCCCCN3[C@H]4[C@H](O)[C@@H](O)[C@H](O[C@@H]5OC[C@@H](O)[C@H](O)[C@H]5O)C[C@H]43)c3ccccc3C2(C)C)C(C)(C)c2ccccc21 (some centres unmarked)	xlnD	covalent inhibitor	Aspergillus nidulans	pH 4.5		kinact/Ki	33.3 M⁻¹ s⁻¹
CN(C)c1ncnc2c1ncn2[C@@H]1O[C@@H]2COP(=O)(O)O[C@H]3[C@@H](O)[C@H](n4cnc5c(N(C)C)ncnc54)O[C@@H]3COP(=O)(O)O[C@H]2[C@H]1O	gdpP residues 84-659	HPLC		concentration not given	reference: c-di-AMP, higher = slower hydrolysis	hydrolysis rate fold decrease	≥ 4100
CN1CCN(C(=O)N[C@@H](Cc2ccccc2)C(=O)N[C@H](/C=C/S(=O)(=O)c2ccccc2)CCc2ccccc2)CC1	Procathepsin L (CTSL, Homo sapiens, UniProt P07711)	inactivator		pH 5.5, 25 °C		kinact	0.013 ± 0.002 s⁻¹
CC(=O)N[C@@H](Cc1c[nH]c2ccccc12)C(=O)N[C@@H](CCC(=O)O)C(=O)N[C@@H](Cc1c[nH]cn1)C(=O)N[C@@H](CC(=O)O)C(=O)Nc1ccc2c(C)cc(=O)oc2c1	Caspase-10 (CASP10, Homo sapiens, UniProt Q92851)	substrate cleavage, substrate, fluorogenic AMC release		enzyme 0.25 activity units/µL		Vmax	131 ± 19.7 RFU/min
CCN(Cc1ccccc1)C(=O)CCc1nc(CN2CCN(C(=O)Cc3ccc(OC)c(OC)c3)CC2)no1	KCNQ2 (Homo sapiens, UniProt O43526)	potassium current, whole-cell patch clamp	CHO, stable	10 µM		activation V1/2	-50.4 mV
CC(=O)/C=C/c1c(CCCC(=O)NCC(=O)NCc2cn(CCCNC(=O)c3ccc4c(c3)C(=O)OC43c4ccc(N(C)C)cc4Oc4cc(N(C)C)ccc43)nn2)[nH]c(=O)[nH]c1=O	HLA-A2 loaded with NLV peptide	fluorescence polarization		concentration not given		binding	no binding
O=C(Nc1ccc(-c2nnn[nH]2)cc1Cc1ccccc1)c1cccc(CC2CCCCC2)n1	Capsid scaffolding protein, protease domain (Human herpesvirus 8 type P, UniProt Q2HRB6, R82Q)	enzyme activity, inhibitor		pH 8	reference: mutant over wild type	IC50 ratio	3 to 4 fold
CC(=O)NC(Cc1ccc(Br)c(Cl)c1)C(=O)N[C@@H](C)C(=O)N1CCC[C@H]1C(=O)N1CCC[C@H]1C(=O)N[C@@H](CCC(=O)O)C(=O)N[C@@H](Cc1c[nH]cn1)C(=O)N[C@@H](CO)C(=O)N[C@H](C(=O)N[C@@H](C)C(N)=O)[C@@H](C)OP(=O)(O)O (some centres unmarked)	HIPK1 (Homo sapiens, UniProt Q86Z02)			10 µM		inhibition	0.99 ± 0.04%
C/C=C1\NC(=O)[C@H](Cc2ccccc2)NC(=O)[C@H](C(C)C)NC(=O)[C@H](Cc2ccccc2)NC(=O)[C@H](CCC(N)=O)NC(=O)[C@H](Cc2c[nH]c3ccccc23)NC(=O)[C@H]2CSC[C@@H](C(=O)N[C@@H](CO)C(=O)O)NC(=O)[C@H](CSC[C@H]3NC(=O)[C@H]([C@@H](C)CC)NC(=O)[C@H](NC(=O)[C@H](Cc4c[nH]cn4)NC(=O)[C@@H](NC(=O)[C@@H](NC(=O)CNC(=O)[C@H](CO)NC(=O)CNC(=O)CNC(=O)[C@@H](N)CCCCN)C(C)C)[C@@H](C)CC)[C@H](C)SC[C@H](NC(=O)[C@H](CCC(=O)O)NC(=O)[C@H](Cc4c[nH]cn4)NC3=O)C(=O)N[C@@H](CC(N)=O)C(=O)N[C@@H](CCSC)C(=O)N[C@@H](CC(N)=O)C(=O)N2)NC1=O	Integrin alpha-V/beta-3 (Homo sapiens, UniProt P05106+P06756)	fluorescence polarization competition		concentration not given, with: fluorescein-c(RGDyK)		binding	no binding

For quick reference, copied from above:
Structure (SMILES)	target	assay	test system	setting	scale	endpoint	result
CC(C)P(=[Se])(NP(=[Se])(C(C)C)C(C)C)C(C)C	Alpha-amylase (Bacillus subtilis, UniProt P00691)	binding, Van't Hoff analysis		pH 6.8, 298–310 K		ΔH	55.3 kcal/mol
O=C(NC1CCCC1=O)C1CCC1 (centres unmarked)	rhlR	reporter gene, agonist, rhlI-lacZ reporter	Escherichia coli			maximum activation	93%
CC1=C(C)C(Oc2c(F)cc3c(C)cc(=O)oc3c2F)OC1=O (racemic)	RMS3	enzyme activity, substrate, DiFMU release		pre-steady state		kcat/K1/2	400 M⁻¹ s⁻¹
CC(=O)N[C@@H](CC(C)C)C(=O)N[C@@H](CCC(=O)O)C(=O)N[C@@H](Cc1c[nH]cn1)C(=O)N[C@@H](CC(=O)O)C(=O)Nc1ccc2c(C)cc(=O)oc2c1	Caspase-4 (CASP4, Homo sapiens, UniProt P49662)	substrate cleavage, substrate, fluorogenic AMC release		enzyme 0.25 activity units/µL		Vmax	2820 ± 159 RFU/min
O=C(Nc1cccc(-c2nn[nH]n2)c1)c1cc(-c2ccsc2)cc(C(F)(F)F)c1	CTX-M-27 beta-lactamase	surface plasmon resonance				Kd/Ki difference	2 to 3 fold
